Results from different studies.
Each numbered part is a random draw from the data of one study; scales do not carry over between parts. Numbers after ± are the reported error.
Sequence of UniProt P34913 (whole entry, looked up): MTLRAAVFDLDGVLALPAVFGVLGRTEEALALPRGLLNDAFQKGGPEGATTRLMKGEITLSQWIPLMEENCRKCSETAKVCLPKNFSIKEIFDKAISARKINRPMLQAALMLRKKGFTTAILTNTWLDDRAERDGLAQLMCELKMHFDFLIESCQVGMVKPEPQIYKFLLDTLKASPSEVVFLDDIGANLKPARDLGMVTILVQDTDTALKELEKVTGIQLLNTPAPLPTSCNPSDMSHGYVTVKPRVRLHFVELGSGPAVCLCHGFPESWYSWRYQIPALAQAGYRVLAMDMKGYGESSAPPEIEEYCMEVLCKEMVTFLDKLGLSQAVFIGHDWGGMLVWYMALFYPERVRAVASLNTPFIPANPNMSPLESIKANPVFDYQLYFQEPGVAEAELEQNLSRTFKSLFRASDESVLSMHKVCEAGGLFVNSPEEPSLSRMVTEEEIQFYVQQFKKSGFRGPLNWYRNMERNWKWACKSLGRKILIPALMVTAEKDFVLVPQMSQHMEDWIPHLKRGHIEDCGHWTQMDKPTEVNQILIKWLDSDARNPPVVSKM
Sequence of UniProt O42275 (whole entry, looked up): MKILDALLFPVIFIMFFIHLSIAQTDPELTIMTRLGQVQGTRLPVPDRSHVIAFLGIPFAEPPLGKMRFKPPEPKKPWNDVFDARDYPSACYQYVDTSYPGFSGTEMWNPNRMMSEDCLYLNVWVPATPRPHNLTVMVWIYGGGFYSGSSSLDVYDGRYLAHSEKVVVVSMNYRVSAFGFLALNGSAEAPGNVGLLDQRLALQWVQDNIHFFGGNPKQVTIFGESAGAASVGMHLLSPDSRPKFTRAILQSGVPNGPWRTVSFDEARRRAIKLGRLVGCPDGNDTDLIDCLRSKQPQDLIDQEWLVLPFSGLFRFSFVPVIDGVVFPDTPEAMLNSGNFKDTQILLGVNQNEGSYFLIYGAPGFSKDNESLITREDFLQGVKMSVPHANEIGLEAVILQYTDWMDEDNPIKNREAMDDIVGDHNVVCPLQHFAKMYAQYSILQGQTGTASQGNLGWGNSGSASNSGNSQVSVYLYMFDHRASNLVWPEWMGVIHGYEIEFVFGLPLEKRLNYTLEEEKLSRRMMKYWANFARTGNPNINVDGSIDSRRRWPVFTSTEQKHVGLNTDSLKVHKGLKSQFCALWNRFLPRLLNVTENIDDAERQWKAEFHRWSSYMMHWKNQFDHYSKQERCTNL

Block 1
Structure (SMILES): Cc1cc(OCc2nnc(SC3CCCC3)n2-c2cccnc2)ccc1-c1ccc(S(C)(=O)=O)cc1
Quantity: GI50
NCI-H226: 0.216 µM
COLO 205: 1.58 µM
NCI-H23: 0.0971 µM

Further values, each from its own experiment
Cc1ccc(S(=O)(=O)Nc2c(N3CCC(NC(=O)Nc4ccc(C)c(Cl)c4)CC3)c(=O)c2=O)cc1
IC50 (EPHX2 (Homo sapiens, UniProt P34913)): 0.0004 ± 2e-05 µM

O=C(Nc1ccc(-c2cnc3ccccc3c2)cc1)C1CCN(Cc2cccc([N+](=O)[O-])c2)CC1
IC50 (ache (Electrophorus electricus, UniProt O42275)): > 10 µM

pyc (Rhizobium etli, UniProt Q2K340)
Km (NC(=O)OP(=O)(O)O; steady-state kinetics; pH 7.5, 25 °C, apparent): 2600 µM

Excerpt of the above (block 1):
NCI-H23: 0.0971 µM
